Results from different studies.
Each numbered part is a random draw from the data of one study; scales do not carry over between parts. Several values in a cell are separate wells, animals, samples, runs or records.
Chain of UniProt Q56UN5 (whole entry, looked up): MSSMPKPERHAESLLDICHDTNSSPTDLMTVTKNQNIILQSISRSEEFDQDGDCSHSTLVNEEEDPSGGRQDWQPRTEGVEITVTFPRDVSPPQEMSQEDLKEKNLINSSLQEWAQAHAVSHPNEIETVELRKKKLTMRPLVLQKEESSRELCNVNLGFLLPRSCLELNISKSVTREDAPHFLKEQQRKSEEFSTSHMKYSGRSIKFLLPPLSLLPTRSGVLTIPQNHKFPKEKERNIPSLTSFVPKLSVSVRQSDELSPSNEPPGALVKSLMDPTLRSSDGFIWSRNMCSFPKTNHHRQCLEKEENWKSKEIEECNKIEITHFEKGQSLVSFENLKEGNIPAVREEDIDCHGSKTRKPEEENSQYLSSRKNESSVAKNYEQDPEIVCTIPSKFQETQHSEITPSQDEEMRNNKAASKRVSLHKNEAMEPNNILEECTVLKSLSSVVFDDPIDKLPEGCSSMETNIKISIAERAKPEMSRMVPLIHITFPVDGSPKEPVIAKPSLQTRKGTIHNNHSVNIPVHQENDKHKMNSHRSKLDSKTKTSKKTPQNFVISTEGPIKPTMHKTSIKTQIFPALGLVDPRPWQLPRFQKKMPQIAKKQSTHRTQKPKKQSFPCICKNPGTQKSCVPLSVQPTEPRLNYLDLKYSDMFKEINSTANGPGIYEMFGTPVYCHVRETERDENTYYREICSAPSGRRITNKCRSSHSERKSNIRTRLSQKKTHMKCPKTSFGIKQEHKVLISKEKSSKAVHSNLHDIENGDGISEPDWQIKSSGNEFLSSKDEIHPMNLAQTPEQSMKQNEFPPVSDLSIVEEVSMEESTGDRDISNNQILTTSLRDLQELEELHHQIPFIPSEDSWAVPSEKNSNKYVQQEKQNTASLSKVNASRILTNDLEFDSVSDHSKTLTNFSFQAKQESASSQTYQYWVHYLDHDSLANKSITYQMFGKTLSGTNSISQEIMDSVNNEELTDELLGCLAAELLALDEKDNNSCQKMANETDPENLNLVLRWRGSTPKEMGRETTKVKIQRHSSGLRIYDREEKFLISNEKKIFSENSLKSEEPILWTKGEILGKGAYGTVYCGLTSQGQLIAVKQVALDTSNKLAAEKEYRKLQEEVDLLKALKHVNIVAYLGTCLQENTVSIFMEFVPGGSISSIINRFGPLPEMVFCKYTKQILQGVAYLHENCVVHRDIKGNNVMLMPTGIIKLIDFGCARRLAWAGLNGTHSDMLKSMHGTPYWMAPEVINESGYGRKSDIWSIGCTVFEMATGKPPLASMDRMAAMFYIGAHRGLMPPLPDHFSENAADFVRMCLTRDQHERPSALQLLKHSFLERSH
Chain of UniProt Q15831 (whole entry, looked up): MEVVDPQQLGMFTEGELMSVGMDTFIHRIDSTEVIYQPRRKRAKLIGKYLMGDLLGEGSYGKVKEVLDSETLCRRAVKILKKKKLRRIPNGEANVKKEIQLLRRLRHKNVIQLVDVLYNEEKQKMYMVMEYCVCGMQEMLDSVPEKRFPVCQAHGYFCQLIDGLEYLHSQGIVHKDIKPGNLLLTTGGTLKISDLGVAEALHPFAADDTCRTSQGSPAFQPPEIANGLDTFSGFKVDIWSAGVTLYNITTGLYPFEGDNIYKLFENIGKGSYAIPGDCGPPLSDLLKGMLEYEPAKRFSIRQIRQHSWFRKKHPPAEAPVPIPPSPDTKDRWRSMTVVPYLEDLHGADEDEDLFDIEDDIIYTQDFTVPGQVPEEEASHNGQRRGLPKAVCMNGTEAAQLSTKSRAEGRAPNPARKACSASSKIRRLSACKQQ

Set 1
SMILES: Cc1nccc(COC(=O)N2C[C@@H]3[C@@H](CNC(=O)c4ccc5[nH]nnc5c4)[C@@H]3C2)n1
Observed: cell-free assay
Method: competition with immobilised ligand
Concentration: 1 µM
Endpoint: remaining binding
STK11 (Homo sapiens, UniProt Q15831): 100%
Ribosomal protein S6 kinase alpha-2, N-terminal kinase domain (RPS6KA2, Homo sapiens, UniProt Q15349): 100%
EPHA8 (Homo sapiens, UniProt P29322): 100%
EGFR (Homo sapiens, UniProt P00533, del747-750/T751S): 87%
Ribosomal protein S6 kinase alpha-6, C-terminal kinase domain (RPS6KA6, Homo sapiens, UniProt Q9UK32): 95%
MAP3K3 (Homo sapiens, UniProt Q99759): 91%
Tyrosine-protein kinase ABL1, non-phosphorylated (ABL1, Homo sapiens, UniProt P00519, F317L): 70%
MAP3K19 (Homo sapiens, UniProt Q56UN5): 90%
STK16 (Homo sapiens, UniProt O75716): 80%
BMPR1B (Homo sapiens, UniProt O00238): 100%
FGFR1 (Homo sapiens, UniProt P11362): 91%
FLT3 (Homo sapiens, UniProt P36888, D835V/ITD): 100%
FLT3 (Homo sapiens, UniProt P36888, D835H): 97%
PIK3CA (Homo sapiens, UniProt P42336, Q546K): 85%
BMP2K (Homo sapiens, UniProt Q9NSY1): 100%
EPHA7 (Homo sapiens, UniProt Q15375): 89%
EGFR (Homo sapiens, UniProt P00533, L858R): 78%

Set 2
Target: Calcium/calmodulin-dependent protein kinase type II subunit alpha (CAMK2A, Homo sapiens, UniProt Q9UQM7)
Chain of UniProt Q9UQM7 (whole entry, looked up): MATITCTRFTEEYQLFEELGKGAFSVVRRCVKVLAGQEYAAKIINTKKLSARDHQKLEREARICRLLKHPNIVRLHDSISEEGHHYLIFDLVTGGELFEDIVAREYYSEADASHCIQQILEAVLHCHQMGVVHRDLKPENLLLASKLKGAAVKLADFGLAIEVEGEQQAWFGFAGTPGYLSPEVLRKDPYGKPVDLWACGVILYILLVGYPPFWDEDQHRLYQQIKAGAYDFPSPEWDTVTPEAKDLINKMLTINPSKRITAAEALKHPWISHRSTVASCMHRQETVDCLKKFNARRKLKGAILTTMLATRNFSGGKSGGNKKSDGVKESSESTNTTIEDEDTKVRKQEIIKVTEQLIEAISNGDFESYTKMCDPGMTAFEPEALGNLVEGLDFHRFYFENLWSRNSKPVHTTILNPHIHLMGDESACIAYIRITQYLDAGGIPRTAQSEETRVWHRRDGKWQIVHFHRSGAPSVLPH
Observed: enzyme activity
Action: inhibitor
Concentration: 10 µM
Endpoint: inhibition
CCCCCCCCCCCCCCC(=O)O: 5%
O=C(O)P(=O)(O)O: -12%
CCC(=O)O[C@]1(C(=O)CO)CC[C@H]2[C@@H]3CCC4=CC(=O)CC[C@]4(C)[C@H]3CC[C@@]21C: -7%
COc1c2occc2cc2ccc(=O)oc12: 4%
COc1cc(C[C@H]2COC(=O)[C@@H]2Cc2ccc(O)c(OC)c2)ccc1O: 7%

Set 3
Compound: CC(C)n1cnc(-c2ccc(F)cc2)c1-c1ncc(C(=O)Nc2ccc(N3CCN(C)CC3)cc2)[nH]1
Method: phase 2a clinical trial
Species: patients with idiopathic pulmonary fibrosis
Endpoint: patients with treatment-emergent adverse events
measured: drug-induced liver injury; 30 mg once daily, Grade 1: 0%
measured: electrocardiogram QT prolonged; dose not given, Grade 3, all drug arms total: 0%
measured: left ventricular dysfunction; dose not given, Grade 5, all drug arms: 0%
measured: idiopathic pulmonary fibrosis; 30 mg once daily, Grade 3: 0%
measured: investigations (SOC); 30 mg once daily, Grade 5: 0%
measured: protein urine present; 60 mg once daily, Grade 1: 0%

Set 4
Target: DNA polymerase theta, ATPase domain (POLQ, Homo sapiens, UniProt O75417)
Chain of UniProt O75417 (whole entry, unmodified, looked up): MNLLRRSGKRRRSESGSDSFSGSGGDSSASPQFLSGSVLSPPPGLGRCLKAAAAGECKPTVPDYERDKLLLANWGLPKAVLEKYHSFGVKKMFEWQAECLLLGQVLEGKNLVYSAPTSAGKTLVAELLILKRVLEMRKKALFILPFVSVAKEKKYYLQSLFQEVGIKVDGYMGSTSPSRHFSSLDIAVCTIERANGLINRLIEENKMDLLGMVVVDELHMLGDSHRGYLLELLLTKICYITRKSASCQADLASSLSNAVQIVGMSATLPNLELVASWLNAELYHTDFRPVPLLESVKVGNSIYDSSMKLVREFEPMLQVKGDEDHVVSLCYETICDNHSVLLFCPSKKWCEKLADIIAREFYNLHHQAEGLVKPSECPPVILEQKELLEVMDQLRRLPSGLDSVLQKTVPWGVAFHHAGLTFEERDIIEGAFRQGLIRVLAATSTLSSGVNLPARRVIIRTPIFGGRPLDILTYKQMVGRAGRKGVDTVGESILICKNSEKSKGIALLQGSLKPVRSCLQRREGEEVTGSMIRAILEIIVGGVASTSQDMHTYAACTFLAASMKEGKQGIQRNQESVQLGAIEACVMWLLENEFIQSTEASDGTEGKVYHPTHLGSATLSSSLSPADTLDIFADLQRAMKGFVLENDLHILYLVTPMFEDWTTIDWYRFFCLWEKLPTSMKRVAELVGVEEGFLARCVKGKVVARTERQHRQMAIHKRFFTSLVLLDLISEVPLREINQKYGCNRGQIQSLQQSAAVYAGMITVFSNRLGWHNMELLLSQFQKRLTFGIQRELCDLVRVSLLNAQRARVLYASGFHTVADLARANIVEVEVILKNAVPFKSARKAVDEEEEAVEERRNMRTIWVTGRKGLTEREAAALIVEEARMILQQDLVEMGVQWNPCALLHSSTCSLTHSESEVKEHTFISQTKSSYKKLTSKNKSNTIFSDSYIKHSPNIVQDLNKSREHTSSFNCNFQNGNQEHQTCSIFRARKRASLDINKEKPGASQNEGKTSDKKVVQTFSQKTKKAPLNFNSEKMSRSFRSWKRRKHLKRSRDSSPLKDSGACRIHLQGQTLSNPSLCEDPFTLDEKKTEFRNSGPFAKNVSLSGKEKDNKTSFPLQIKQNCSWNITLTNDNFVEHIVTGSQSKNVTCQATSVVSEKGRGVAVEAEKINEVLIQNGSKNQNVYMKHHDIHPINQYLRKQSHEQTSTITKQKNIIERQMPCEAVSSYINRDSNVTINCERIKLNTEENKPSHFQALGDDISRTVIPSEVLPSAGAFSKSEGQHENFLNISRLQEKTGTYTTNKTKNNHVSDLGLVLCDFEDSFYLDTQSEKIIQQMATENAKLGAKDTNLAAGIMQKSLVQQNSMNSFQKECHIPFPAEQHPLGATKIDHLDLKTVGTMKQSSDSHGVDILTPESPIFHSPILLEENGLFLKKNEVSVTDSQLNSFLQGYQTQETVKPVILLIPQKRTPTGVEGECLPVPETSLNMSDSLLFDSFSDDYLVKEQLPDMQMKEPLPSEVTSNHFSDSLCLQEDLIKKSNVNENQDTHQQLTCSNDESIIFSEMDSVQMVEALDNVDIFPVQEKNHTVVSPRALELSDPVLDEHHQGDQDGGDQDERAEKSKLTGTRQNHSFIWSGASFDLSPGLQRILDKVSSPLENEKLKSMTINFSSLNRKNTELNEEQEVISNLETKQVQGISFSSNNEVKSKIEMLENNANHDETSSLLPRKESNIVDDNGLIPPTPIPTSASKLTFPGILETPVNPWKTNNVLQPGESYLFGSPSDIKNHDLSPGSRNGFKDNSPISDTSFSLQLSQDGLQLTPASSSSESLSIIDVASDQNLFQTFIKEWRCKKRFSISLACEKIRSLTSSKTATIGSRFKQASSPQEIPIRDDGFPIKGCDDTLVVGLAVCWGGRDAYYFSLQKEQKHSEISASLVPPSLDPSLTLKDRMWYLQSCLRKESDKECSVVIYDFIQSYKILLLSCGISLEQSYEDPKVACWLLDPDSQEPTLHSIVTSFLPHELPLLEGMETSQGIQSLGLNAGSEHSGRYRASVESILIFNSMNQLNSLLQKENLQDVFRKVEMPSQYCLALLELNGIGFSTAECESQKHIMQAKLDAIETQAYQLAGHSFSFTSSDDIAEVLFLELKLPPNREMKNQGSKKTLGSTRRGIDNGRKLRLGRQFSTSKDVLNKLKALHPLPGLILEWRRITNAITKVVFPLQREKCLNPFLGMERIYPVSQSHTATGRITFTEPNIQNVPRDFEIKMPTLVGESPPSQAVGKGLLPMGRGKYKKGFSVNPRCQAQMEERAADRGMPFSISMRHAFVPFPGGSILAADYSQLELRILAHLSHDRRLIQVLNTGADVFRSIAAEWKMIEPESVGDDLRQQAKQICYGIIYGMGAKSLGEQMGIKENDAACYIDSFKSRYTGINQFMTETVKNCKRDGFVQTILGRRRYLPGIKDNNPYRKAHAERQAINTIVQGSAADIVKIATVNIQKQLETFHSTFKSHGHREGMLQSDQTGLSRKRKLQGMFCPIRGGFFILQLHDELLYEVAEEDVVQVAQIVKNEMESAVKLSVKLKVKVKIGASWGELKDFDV
Observed: enzyme activity
Action: inhibitor
Concentration: 77 µM
Reference: untreated
Endpoint: remaining activity
C[C@H](O)C(=O)C1=Nc2c(nc(N)[nH]c2=O)NC1: 98.7%
NCc1c[nH]c(=S)n1[C@@H]1CCc2c(F)cc(F)cc2C1: 102%
O=C(NC1CCN(CCCCC2(C(=O)NCC(F)(F)F)c3ccccc3-c3ccccc32)CC1)c1ccccc1-c1ccc(C(F)(F)F)cc1: 99.4%
Nc1ccc(S(=O)(=O)Nc2ccnn2-c2ccccc2)cc1: 90.5%
NC(=O)c1cc[n+](CC2=C(C(=O)O)N3C(=O)[C@@H](NC(=O)[C@@H](c4ccccc4)S(=O)(=O)[O-])[C@H]3SC2)cc1: 103% and 93.5%
CS(=O)(=O)c1ccc(C(=O)Nc2ccc(Cl)c(-c3ccccn3)c2)c(Cl)c1: 105%

Set 5
Target: Bromodomain-containing protein 4, BD1 (BRD4, Homo sapiens, UniProt O60885)
Concentration: 50 µM
Endpoint: inhibition
COc1cc2c(Oc3ccc4[nH]c(C)cc4c3F)ncnc2cc1OCCCN1CCCC1: 37.8%
CN1CCN(c2nc(C3=C(c4c[nH]c5ccccc45)C(=O)NC3=O)c3ccccc3n2)CC1: 73.9%
COc1ccc2[nH]c([S+]([O-])Cc3ncc(C)c(OC)c3C)nc2n1 (stereo not drawn): 5.05%
CC(C)[C@H](CO)Nc1nc(Nc2cc(N)cc(Cl)c2)c2ncn(C(C)C)c2n1: 26.6%
COc1cc(Nc2ncc(F)c(Nc3ccc4c(n3)N(COP(=O)(O)O)C(=O)C(C)(C)O4)n2)cc(OC)c1OC: -22.4%

A few entries again (set 3):
measured: left ventricular dysfunction; dose not given, Grade 5, all drug arms: 0%
measured: idiopathic pulmonary fibrosis; 30 mg once daily, Grade 3: 0%
measured: investigations (SOC); 30 mg once daily, Grade 5: 0%
measured: protein urine present; 60 mg once daily, Grade 1: 0%
